Assay results collected from several papers.
Several values in a cell are separate wells, animals, samples, runs or records. Numbers after ± are the reported error.
Sequence of UniProt Q9NZQ7 (whole entry, looked up): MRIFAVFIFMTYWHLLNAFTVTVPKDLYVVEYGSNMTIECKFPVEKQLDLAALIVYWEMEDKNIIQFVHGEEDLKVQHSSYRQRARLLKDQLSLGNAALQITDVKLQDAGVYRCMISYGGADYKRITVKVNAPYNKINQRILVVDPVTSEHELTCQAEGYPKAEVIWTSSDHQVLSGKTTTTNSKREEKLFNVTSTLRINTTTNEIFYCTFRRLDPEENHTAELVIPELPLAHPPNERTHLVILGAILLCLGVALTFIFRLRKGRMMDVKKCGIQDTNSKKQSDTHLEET
Sequence of UniProt P56817 (whole entry, looked up): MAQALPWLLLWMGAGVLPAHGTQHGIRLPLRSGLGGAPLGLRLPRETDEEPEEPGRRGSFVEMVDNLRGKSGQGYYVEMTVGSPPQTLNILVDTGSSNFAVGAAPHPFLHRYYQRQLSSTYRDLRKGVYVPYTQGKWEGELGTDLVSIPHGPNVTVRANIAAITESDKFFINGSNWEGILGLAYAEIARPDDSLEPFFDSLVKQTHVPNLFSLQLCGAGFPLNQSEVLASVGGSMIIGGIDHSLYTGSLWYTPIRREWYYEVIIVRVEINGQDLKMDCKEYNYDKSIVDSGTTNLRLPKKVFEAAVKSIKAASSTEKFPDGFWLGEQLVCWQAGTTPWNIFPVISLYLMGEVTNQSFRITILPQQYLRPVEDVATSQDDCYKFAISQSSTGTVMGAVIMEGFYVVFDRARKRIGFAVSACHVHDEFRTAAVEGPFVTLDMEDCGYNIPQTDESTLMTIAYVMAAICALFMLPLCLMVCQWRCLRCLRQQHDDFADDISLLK
Sequence of UniProt Q8E0N2 (whole entry, looked up): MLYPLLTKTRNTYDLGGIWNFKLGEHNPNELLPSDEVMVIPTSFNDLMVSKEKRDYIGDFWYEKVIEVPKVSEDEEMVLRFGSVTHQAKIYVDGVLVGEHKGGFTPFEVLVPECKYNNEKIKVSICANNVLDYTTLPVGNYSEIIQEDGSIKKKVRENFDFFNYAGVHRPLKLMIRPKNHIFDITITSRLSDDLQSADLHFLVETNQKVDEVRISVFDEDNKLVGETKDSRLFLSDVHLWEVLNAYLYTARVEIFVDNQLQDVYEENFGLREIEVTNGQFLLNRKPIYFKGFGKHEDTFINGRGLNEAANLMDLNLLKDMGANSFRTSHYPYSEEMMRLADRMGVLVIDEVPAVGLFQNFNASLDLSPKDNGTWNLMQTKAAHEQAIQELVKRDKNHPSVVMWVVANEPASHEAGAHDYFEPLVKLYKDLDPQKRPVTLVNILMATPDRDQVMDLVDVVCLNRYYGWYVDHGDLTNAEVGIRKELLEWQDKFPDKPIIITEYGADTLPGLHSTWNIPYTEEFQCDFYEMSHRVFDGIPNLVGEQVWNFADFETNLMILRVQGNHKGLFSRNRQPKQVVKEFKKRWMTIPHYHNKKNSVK
Sequence of UniProt P00690 (whole entry, looked up): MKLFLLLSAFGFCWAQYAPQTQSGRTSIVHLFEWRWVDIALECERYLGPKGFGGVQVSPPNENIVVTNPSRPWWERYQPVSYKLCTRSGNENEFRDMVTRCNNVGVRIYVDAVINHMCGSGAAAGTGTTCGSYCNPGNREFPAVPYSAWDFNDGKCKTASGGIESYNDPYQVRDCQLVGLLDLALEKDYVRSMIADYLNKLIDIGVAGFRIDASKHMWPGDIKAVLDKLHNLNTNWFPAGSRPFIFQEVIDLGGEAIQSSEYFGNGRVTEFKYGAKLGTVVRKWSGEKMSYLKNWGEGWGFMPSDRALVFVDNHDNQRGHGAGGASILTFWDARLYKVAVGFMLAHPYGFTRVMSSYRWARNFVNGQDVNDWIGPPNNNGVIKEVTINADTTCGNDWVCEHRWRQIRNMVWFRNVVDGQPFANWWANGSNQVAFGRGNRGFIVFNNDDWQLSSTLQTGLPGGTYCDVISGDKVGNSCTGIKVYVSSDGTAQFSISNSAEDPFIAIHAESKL
Sequence of UniProt P08246 (whole entry, looked up): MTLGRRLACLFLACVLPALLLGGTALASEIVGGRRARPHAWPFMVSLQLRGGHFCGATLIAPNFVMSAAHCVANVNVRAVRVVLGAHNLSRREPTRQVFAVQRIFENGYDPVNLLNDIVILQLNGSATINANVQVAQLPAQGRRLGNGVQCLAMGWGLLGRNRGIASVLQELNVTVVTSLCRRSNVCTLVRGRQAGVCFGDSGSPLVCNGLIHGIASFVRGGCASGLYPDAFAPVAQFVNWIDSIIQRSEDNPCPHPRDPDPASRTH
Sequence of UniProt P08684 (whole entry, looked up): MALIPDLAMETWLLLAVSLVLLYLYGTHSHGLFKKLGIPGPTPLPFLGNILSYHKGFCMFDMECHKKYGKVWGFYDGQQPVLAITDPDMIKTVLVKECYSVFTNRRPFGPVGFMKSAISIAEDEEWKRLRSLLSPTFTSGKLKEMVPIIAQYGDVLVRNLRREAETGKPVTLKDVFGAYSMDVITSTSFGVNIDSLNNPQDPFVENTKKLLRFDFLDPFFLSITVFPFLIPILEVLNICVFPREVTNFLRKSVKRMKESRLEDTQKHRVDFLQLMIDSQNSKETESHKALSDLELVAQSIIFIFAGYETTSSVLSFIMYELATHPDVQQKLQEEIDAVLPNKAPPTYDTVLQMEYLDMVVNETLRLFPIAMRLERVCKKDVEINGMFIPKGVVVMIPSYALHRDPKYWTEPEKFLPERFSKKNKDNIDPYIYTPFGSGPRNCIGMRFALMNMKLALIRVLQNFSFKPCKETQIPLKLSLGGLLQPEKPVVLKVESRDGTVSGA
Sequence of UniProt P07339 (whole entry, looked up): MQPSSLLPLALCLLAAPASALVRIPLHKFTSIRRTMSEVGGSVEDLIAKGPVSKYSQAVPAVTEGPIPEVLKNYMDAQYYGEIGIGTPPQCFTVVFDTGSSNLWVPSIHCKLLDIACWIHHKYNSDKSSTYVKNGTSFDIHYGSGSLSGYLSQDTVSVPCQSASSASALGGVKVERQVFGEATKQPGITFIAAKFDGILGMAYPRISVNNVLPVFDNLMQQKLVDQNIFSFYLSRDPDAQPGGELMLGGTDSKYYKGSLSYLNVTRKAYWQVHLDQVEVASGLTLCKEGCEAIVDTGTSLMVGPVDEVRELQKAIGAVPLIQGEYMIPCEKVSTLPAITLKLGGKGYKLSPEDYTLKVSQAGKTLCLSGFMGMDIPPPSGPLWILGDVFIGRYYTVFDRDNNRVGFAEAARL
Sequence of UniProt Q9Y572 (whole entry, looked up): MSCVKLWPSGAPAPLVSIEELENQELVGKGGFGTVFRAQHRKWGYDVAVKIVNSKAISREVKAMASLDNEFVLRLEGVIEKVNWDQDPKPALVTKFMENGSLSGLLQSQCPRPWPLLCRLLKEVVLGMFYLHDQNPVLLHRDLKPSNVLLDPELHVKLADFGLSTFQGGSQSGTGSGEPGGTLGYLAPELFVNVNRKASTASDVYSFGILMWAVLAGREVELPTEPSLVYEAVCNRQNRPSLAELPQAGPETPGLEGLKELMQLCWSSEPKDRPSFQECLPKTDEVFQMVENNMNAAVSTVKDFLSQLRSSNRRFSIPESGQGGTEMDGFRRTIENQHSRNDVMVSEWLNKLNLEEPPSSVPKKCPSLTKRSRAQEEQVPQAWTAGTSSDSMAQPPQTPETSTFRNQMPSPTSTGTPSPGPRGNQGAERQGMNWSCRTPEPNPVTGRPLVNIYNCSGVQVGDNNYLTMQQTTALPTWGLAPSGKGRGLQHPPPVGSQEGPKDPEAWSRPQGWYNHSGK
Sequence of UniProt P40763 (whole entry, looked up): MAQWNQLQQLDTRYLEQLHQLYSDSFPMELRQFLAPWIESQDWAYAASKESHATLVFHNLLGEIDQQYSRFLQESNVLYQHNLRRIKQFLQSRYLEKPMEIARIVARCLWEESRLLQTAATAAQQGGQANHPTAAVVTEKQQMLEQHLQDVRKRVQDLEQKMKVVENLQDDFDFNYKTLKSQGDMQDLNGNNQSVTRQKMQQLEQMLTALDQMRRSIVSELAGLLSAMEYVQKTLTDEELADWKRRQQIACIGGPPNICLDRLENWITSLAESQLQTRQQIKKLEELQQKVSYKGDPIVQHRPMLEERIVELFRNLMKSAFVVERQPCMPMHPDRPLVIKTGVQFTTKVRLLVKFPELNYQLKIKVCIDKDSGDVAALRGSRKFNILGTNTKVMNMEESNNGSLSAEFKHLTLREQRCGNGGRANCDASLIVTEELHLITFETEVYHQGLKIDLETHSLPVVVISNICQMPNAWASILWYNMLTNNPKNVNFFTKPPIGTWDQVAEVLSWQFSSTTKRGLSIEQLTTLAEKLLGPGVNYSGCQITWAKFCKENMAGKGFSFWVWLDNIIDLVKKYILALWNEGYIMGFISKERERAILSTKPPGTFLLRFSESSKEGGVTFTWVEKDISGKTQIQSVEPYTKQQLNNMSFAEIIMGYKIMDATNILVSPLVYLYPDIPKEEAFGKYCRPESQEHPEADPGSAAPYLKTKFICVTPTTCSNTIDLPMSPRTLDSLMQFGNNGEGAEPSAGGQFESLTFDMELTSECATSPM
Sequence of UniProt P41020 (whole entry, looked up): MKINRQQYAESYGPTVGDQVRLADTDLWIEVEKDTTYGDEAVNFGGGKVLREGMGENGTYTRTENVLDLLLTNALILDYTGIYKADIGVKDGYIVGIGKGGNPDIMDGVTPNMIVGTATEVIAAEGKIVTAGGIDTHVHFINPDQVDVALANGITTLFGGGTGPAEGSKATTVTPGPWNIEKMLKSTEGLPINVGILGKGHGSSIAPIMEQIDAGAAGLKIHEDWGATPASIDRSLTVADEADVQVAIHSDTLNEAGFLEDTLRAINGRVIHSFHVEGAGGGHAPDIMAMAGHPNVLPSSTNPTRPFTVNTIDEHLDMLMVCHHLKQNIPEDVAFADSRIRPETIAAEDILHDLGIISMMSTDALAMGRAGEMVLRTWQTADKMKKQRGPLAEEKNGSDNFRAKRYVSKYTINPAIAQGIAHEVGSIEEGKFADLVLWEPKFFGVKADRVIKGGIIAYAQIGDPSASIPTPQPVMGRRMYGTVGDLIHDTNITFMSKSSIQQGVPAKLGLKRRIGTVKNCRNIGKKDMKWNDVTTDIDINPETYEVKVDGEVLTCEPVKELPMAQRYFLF

| Compound | target | test | system | setting | IC50 |
| --- | --- | --- | --- | --- | --- |
| O=C(/C=C/c1ccc(O)cc1)c1ccc(N2CCNCC2)cc1 | Beta-secretase 1 (BACE1, Homo sapiens, UniProt P56817) | enzyme activity, inhibitor, fluorescence | – | with preincubation | 9.86 µM |
| CO[C@@H]1C[C@@H](C(=O)N[C@H](C)CCC(N)=O)N(C(=O)[C@H](CC(C)C)NC(=O)/C=C(\C)c2ccc(OP(=O)(O)O)cc2)C1 | Signal transducer and activator of transcription 3 (STAT3, Homo sapiens, UniProt P40763) | phosphopeptide binding, inhibitor, fluorescence polarization | – | – | 0.317 ± 0.014 µM |
| CC(C)C[C@H](NC(=O)[C@@H](NC(=O)[C@@H]1CCCN1C(=O)[C@@H](Cc1ccc(O)cc1)NC(=O)[C@@H](CO)NC(=O)C(C)C(O)CCCCCC(O)Cc1ccccc1)[C@@H](C)O)[C@H](O)CC(=O)N[C@H](CO)Cc1ccc(O)cc1 (some centres unmarked) | Cathepsin D (CTSD, Homo sapiens, UniProt P07339) | enzyme activity, fluorogenic substrate | – | 120 min, pH 3.5 | 21 µM |
| CC(C)c1ccc(C(=O)Nc2ccc(CN3CCN(C)CC3)c(C(F)(F)F)c2)cc1C#Cc1cnc2cccnn12 | Receptor-interacting serine/threonine-protein kinase 3 (RIPK3, Homo sapiens, UniProt Q9Y572) | enzyme activity, inhibitor, ADP detection | – | – | 0.46 µM |
| O=C(O)Cc1c[nH]cn1 | Sodium- and chloride-dependent taurine transporter (SLC6A6, Homo sapiens, UniProt P31641) | transporter uptake, inhibitor, radiometric | – | – | 180 µM |
| Nc1ncnc2c1ncn2[C@@H]1O[C@H](CSCCNC(=O)NCCc2ccccc2)[C@@H](O)[C@H]1O | Protein arginine N-methyltransferase 5 (PRMT5, Homo sapiens, UniProt O14744) | enzyme activity, inhibitor, radiometric | – | – | 13 µM |
| S=C(NCc1ccccn1)NCc1ccccn1 | Pancreatic alpha-amylase (AMY2, Sus scrofa, UniProt P00690) | enzyme activity, inhibitor | – | – | 523 µM |
| Cc1ccc2nc(C(F)(F)F)c(C(=O)NCc3cccc(Cl)c3)n2c1 | Cytochrome P450 3A4 (CYP3A4, Homo sapiens, UniProt P08684) | enzyme activity, inhibitor | – | added: VR substrate | 43 µM |
| O=C(NCCN1CCC2(CC1)C(=O)NCN2Cc1cccnc1)c1cc2cc(F)ccc2[nH]1 | Phospholipase D1 (Homo sapiens, UniProt Q13393) | enzyme activity, inhibitor | – | – | 3.1 µM |
| CC1C(=NNC(=O)c2ccncc2)C(C)C(c2ccc(Br)cc2)OC1c1ccc(Br)cc1 (centres unmarked) | DNA gyrase subunit B (gyrB, Escherichia coli, UniProt P0AES6) | ATPase activity, inhibitor | – | – | 4.98 µM |
| CC[C@H](C)[C@H](NC(=O)[C@@H]1CCCN1C(=O)CNC(=O)[C@H](CC(N)=O)NC(=O)CNC(=O)[C@@H]1CC(=O)O[C@H](C)[C@H](NC(=O)[C@H](Cc2ccccc2)NC(=O)[C@@H](NC(=O)[C@H](CCCCN)NC(=O)CNC(=O)[C@H](CC(=O)O)NC(=O)CNC(=O)[C@@H](NC(=O)CNC(=O)[C@H](CC(=O)O)NC(=O)[C@@H]2CCC(=O)O[C@H](C)[C@H](NC(=O)[C@@H](NC(=O)[C@H](CC(C)C)NC(=O)[C@H](CCCCN)NC(=O)[C@H](Cc3ccccc3)NC(=O)[C@H](CC(=O)O)NC(=O)CNC(=O)[C@H](CCCCN)NC(=O)[C@H](CC(C)C)NC(=O)[C@H](CO)NC(=O)CN)C(C)C)C(=O)N[C@@H](CCSC)C(=O)N[C@@H](CCCCN)C(=O)N[C@@H](C(C)C)C(=O)N3CCC[C@H]3C(=O)N2)C(C)C)C(C)C)C(=O)N[C@@H]2C(=O)N[C@@H](C)C(=O)N[C@@H](CC(C)C)C(=O)NCC(=O)N[C@@H](CCC(=O)O[C@@H]2C)C(=O)N1)C(=O)N[C@@H](Cc1ccc(O)cc1)C(=O)N[C@@H]1C(=O)N[C@@H]2C(=O)N[C@@H](CCC(N)=O)C(=O)N[C@@H](C)C(=O)N[C@@H](C(C)C)C(=O)NCC(=O)N[C@@H](CCC(=O)O[C@@H]2C)C(=O)N[C@H](C(=O)NCC(=O)NCC(=O)N[C@@H](CC(=O)O)C(=O)N[C@@H](CC(C)C)C(=O)N2CCC[C@H]2C(=O)N2CCC[C@H]2C(=O)N[C@@H](CC(C)C)C(=O)N[C@@H](Cc2ccccc2)C(=O)O)CCC(=O)O[C@@H]1C | Neutrophil elastase (ELANE, Homo sapiens, UniProt P08246) | enzyme activity, inhibitor | – | – | 12.9 µM |
| NCP(=O)(O)O | Urease subunit alpha (Sporosarcina pasteurii, UniProt P41020) | enzyme activity, inhibitor, indophenol colorimetric | – | 20 min, pH 7.0, 37 °C, added: 50 mM urea | 700 ± 23 µM |
| CNc1nc2sc3c(N4CCNCC4)nnnc3c2c2c1CCCC2 | Beta-glucuronidase (Streptococcus agalactiae serotype V, UniProt Q8E0N2) | – | Streptococcus agalactiae | – | 0.77 ± 0.09 µM |
| CCCC[C@H]1C(=O)N(C)[C@@H](CCCC)C(=O)N[C@@H](CCCNC(=O)c2ccc(F)nc2)C(=O)N[C@H](C(=O)NCC(N)=O)CSCC(=O)N[C@@H](Cc2ccc(O)cc2)C(=O)N(C)[C@@H](C)C(=O)N[C@@H](CC(N)=O)C(=O)N2CCC[C@H]2C(=O)N[C@@H](Cc2c[nH]cn2)C(=O)N[C@@H](CC(C)C)C(=O)N2C[C@H](O)C[C@H]2C(=O)N[C@@H](Cc2c[nH]c3ccccc23)C(=O)N[C@@H](CO)C(=O)N[C@@H](Cc2cn(C)c3ccccc23)C(=O)N1C | Programmed cell death 1 ligand 1, with PD-1 (CD274, Homo sapiens, UniProt Q9NZQ7) | PD-1 binding, inhibitor, FRET | – | added: PD-1-Ig 20 nM | 0.026 to 0.032 µM and 0.0317 µM |

Repeated from above:
| Compound | target | test | system | setting | IC50 |
| --- | --- | --- | --- | --- | --- |
| S=C(NCc1ccccn1)NCc1ccccn1 | Pancreatic alpha-amylase (AMY2, Sus scrofa, UniProt P00690) | enzyme activity, inhibitor | – | – | 523 µM |
| Cc1ccc2nc(C(F)(F)F)c(C(=O)NCc3cccc(Cl)c3)n2c1 | Cytochrome P450 3A4 (CYP3A4, Homo sapiens, UniProt P08684) | enzyme activity, inhibitor | – | added: VR substrate | 43 µM |
